Published values from different studies.
Parts stem from different laboratories: compare values within a part only.

Study 1
Target: Centromere-binding protein 1, full length, N-terminal tag (CBF1, Saccharomyces cerevisiae, UniProt P17106, residues 1-351)
Sequence of UniProt P17106 (whole entry, looked up): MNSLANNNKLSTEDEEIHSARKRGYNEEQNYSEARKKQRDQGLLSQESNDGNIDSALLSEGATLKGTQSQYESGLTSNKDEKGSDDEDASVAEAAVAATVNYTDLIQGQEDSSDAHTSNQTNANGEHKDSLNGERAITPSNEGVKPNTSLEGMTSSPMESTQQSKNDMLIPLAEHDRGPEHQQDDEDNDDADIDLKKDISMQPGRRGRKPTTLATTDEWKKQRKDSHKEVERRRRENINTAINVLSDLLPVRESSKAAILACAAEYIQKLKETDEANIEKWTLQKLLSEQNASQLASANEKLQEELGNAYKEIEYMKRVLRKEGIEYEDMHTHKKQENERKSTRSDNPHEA
Method: protein-binding microarray
Form: double-stranded DNA, one strand shown
Sample: in vitro
Concentration: 0.8 µM
Setting: whole 60-bp probe, no competitor
Reading: higher = stronger binding
Shared flanks, not repeated: … GTCTTGATTCGCTTGACGCTGCTG
Oligonucleotide | fluorescence intensity [a.u.]
GAACCTACAGACCACAACGTGTCACTGCTAAGCTAG | 586
GAATTTAAATGTCATCACATGATGTTTCTTATATAG | 3470
GAAAAAACACACGGTCACCTTTCTTATTATGGATAG | 574
TGTACGAAGCTATGCCACGGGCGTATAGTAGTTAGG | 518
GAAGTTAGTAGTCTACACGTTACTAATTACGTGTAG | 633
CTATACTCACTTTCGCACATGCGATTACGTGTATTC | 562
TGTACGAAGCTATGTGGTGGTATTATAGTAGTTAGG | 517
GAAAGCTTGAGGAGAGGCATGATGATGGTTCTCTAG | 510
CTATCTGCAAGAGCACGTGCGACGTGTCTGGTGTTC | 10300
CCTAACTACTATACTGATGTCACATAGCTTCGTACA | 549
CTAAAGCAGGATTACACCGTGATTTGATGAAATTTC | 593
TGTACGAAGCTATCCTGCGTGGCTATAGTAGTTAGG | 517
CCTAACTACTATAAACACGTGAGATAGCTTCGTACA | 3890
CTATCTACTTTCCATCACCTGGTTTTCATCGACTTC | 728
GAATCTCTTCCGCCTCACGTAATATCAACAGGTTAG | 547
GAAGATATTACTTATCTCAGCTGAGGTCTCTGGTAG | 482
CTAACCACATCTTCAAACGTGCATATAGAATGGTTC | 576
GAAATTGGGCCAAGGCACGTTTGGTAAAGTACTTAG | 506
GAATTACCGAATTGTAGCGTGGTGACAATGCCATAG | 533

Study 2
Target: Interferon regulatory factor 5, full length, phosphomimetic (IRF5, Homo sapiens, UniProt Q13568-2, residues 1-514, S451D/S453D/S456D/S462D)
Method: protein-binding microarray
Form: double-stranded DNA, one strand shown
Sample: in vitro
Concentration: 940 nM top
Setting: 60-bp whole probe
Added: salmon DNA 0.4 mg/ml
Reference: random background probes
Reading: higher = stronger binding
Shared flanks, not repeated: GCCTAGCAC … GTCTTGATTCGCTTGACGCTGCTG
Oligonucleotide | fitted relative affinity [z-score]
TTAGGCCTGGGACTGGGTTAGTGCTAG | -0.748
TTAGGACTGGCTATCGGTTAGTGCTAG | -0.136
TTAGATTCCAGTTGCGATTAGTGCTAG | 1.06
TCAGGTCTCGGTTTCGGTTAGTGCTAG | 10.6
TTAGGTATCGACTTTCGGTTCGTGCTA | 5.77
TTTGGACTGCTTCTCCTTTAGTGCTAG | -0.115
GAAGGTCTCCTTATCCTGACGTGCTAG | 0.186
TTAGATATCGGGACTGGATTAGTGCTA | -0.0337
TTAGGTATCGCACTGGGTTAGTGCTAG | 2.17
GACGGACTGGGACTAGGGACGTGCTAG | -0.403
TTAGGTATCGATCTCGGTTAGTGCTAG | 8.58
TCAAAACTCACTCATGGCACTGTGCTA | -0.027
TCACTTATCCTTCCCCTACTGTGCTAG | 1.45
GACGATTTCAGACTCGAGACGTGCTAG | -0.025
GACGATCTCAGGTTCGAGACGTGCTAG | -0.0696
TCAGGTATCGGGTATCGGTTAGTGCTA | 6.8
TCACTTCACCTCTCTGTCACTGTGCTA | 1.38
TTCAGTTTCTCTTTCCTTCTGTGCTAG | 5.91
TTAGAACTGCGTTTCGATTAGTGCTAG | 2.18

Study 3
Target: Ras GTPase-activating protein-binding protein 1, RRM domain (G3BP1, Homo sapiens, UniProt Q13283)
Sequence of UniProt Q13283 (whole entry, looked up): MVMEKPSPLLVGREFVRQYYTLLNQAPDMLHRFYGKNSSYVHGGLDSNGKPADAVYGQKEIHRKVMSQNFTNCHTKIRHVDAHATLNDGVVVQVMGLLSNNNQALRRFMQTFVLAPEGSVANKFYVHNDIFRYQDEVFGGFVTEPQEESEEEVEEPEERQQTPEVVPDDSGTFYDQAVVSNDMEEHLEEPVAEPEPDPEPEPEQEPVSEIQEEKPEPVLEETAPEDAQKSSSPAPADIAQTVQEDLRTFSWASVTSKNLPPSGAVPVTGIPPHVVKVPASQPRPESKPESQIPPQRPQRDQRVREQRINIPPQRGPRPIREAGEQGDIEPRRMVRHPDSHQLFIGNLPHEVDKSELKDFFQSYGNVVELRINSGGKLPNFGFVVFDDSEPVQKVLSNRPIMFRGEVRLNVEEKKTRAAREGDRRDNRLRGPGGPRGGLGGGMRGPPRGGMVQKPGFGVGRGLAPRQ
Method: RNA Bind-n-Seq
Form: RNA
Sample: in vitro
Concentration: 1 µM
Setting: whole 134-nt RNA, ends assumed
Added: 150 mM KCl
Reference: input library
Reading: higher = stronger binding
Shared flanks, not repeated: GGGAGUUCUACAGUCCGACGAUC … UGGAAUUCUCGGGUGUCAAGG
Oligonucleotide | log2 enrichment
AGUCCUGUGCUACACAUCGUAUGUACCGAAUCGGGGCCCCCGGGCCCCCGGCCCCCGGAAAGUAUUAUGUUACGCCGUUCGGAUCUGCAC | -0.512
UUUUACAUUUAUACACAUGUAUUGGCUUCCUUUUACACUAUUAGGCGGUCAAGAAGCAGAUCGAGACGGCGGUCACAUUCUAAGUCUAGG | -0.004
CAAGUCCUGUGCUACACAUCGUAUGUACCGAAUCGGGGAGGGGUGGGGUUUGGGGAAAGUAUUAUGUUACGCCGUUCGGAUCUGCACUUC | 0.996
AAGUCCUGUGCUACACAUCGUAUGUACCGAAUCGGAAAAAGGUUUUUGGAAAAAGGAAAGUAUUAUGUUACGCCGUUCGGAUCUGCACUU | -0.239
AAGUCCUGUGCUACACAUCGUAUGUACCGAAUCGGGAAAGGGUUUUUGGGAAAGGGAAAGUAUUAUGUUACGCCGUUCGGAUCUGCACUU | 0.59
AGUCCUGUGCUACACAUCGUAUGUACCGAAUCGGGUUUUUGGUUUUUGGGGUUUUUGGAAAGUAUUAUGUUACGCCGUUCGGAUCUGCAC | -0.106
UUCCUCAAGUCCUGUGCUACACAUCGUAUGUACCGAAUCGGCGGCGGCGGGAAAGUAUUAUGUUACGCCGUUCGGAUCUGCACUUCCAGC | -0.164
UAACUUUAGAGGAGGAUCUGAUGGAUAUGGCAGUGGACGUGGAUUUUGGGAUGGCUAUAAUGGGUAUGGAGGAGGACCUGGAGGUGGCAA | -0.426
CUGUGCUACACAUCGUAUGUACCGAAUCGGGCCCCCCCGGGGCCCCCCCGGGCCCCCCCGGGAAAGUAUUAUGUUACGCCGUUCGGAUCU | -0.573

Study 4
Target: Histone acetyltransferase KAT6A, winged helix 1, GST fusion (KAT6A, Homo sapiens, UniProt Q92794, residues 1-85)
Method: protein binding microarray
Form: double-stranded DNA, one strand shown
Sample: in vitro
Concentration: not given
Setting: 8-mer, flanks averaged, mean of 2 arrays, mostly near background
Reference: not given
Reading: higher = stronger binding
Target sequence (chain): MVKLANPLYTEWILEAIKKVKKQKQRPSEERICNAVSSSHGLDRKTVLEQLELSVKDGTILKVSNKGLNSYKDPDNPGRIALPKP
Oligonucleotide | E-score
CGATCCGA | 0.0978
CGTATCCC | 0.154
ATATTGCG | 0.254
GCCAAGCC | 0.0606
CGAAATAG | 0.0865
GCAAAGCA | -0.0152
CTCACTAA | -0.0374
CCAAGCTC | -0.203
TAATGACA | -0.238
ACAATGTA | -0.151
GTCATCCA | -0.138
ACACGCAC | 0.0585
CGCGGACA | 0.279
CCTGGGCG | 0.0258
ACTTCAGG | -0.126
AATGGCCA | -0.111
